Experimental data pooled from the literature.
Every numbered part comes from another study and shows a few of its results, in no order.

Set 1
Structure (SMILES): COc1cc(C(=O)OCCCN2CCCN(CCCOC(=O)c3cc(OC)c(OC)c(OC)c3)CC2)cc(OC)c1OC
Species: male CD-1 mouse
Route: subcutaneous
Dose: dose not given
It gave 525 ng/mL for tissue concentration (trigeminal ganglion; 1.5 h).
For trigeminal ganglion; 8 h: tissue concentration read 2.8 ng/mL.
For dorsal root ganglia; 24 h: tissue concentration read 1.64 ng/mL.
trigeminal ganglion; 0.1667 h — tissue concentration: 116 ng/mL.
It gave 369 ng/mL for tissue concentration (dorsal root ganglia; 1.5 h).
The tissue concentration was 20.2 ng/mL (trigeminal ganglion; 4.5 h).
It gave 6.89 ng/mL for tissue concentration (dorsal root ganglia; 8 h).
It gave 1530 ng/mL for tissue concentration (dorsal root ganglia; 0.1667 h).

Set 2
Cell line: mouse MPNST tumor cells
Technique: high-content nuclear imaging
Refers to: cell number
Tested at: 10 µM
Time: 12 h
Notes: mean of 2 replicates
Baseline: plate mean
Reading: higher = more cells
For `CC12CC(=O)C3C(CCC4=CC(=O)CCC43C)C1CCC2=O` (stereo not shown), the nuclei count was 3.78 z-score.
`COC(=O)C=CC(=O)NC1CCC2(O)C3Cc4ccc(O)c5c4C2(CCN3CC2CC2)C1O5` (stereo not shown) has a nuclei count of -1.95 z-score.
`CCC(COC(=O)c1cc(OC)c(OC)c(OC)c1)(c1ccccc1)N(C)C` (stereo not shown) gave a nuclei count of 0.528 z-score.
`CN1CCc2cc(Cl)c(O)cc2[C@H]2c3ccccc3CC[C@@H]21` gave a nuclei count of 4.72 z-score.
With `COc1cc(C(=O)N2CC[C@@H](O)[C@@H](N)C2)cc2nc(-c3cc4ccccc4n3CC3CC3)n(C)c12` the nuclei count was -4.13 z-score.

Set 3
Organism: Vesicular stomatitis virus
Read-out: pseudovirus infection
Technique: FDA-approved drug library screen
Tested at: concentration not given
Notes: VSV-G control pseudotype
Baseline: vehicle
`Cl.N=C(N)N` gave a GFP-positive cells of 110%.
`CCn1cc(C(=O)O)c(=O)c2cc(F)c(N3CCNCC3)nc21.CCn1cc(C(=O)O)c(=O)c2cc(F)c(N3CCNCC3)nc21.O.O.O` gave a GFP-positive cells of 103%.
The GFP-positive cells of `Cc1c(OCC(F)(F)F)ccnc1C[S@@+]([O-])c1nc2ccccc2[nH]1` is reported as 105%.
`CN(C)CCc1c[nH]c2ccc(CS(=O)(=O)N3CCCC3)cc12.O=C(O)CC(O)C(=O)O` has a GFP-positive cells of 125%.
The GFP-positive cells of `NC[C@@H]1O[C@H](O[C@H]2[C@@H](O)[C@H](O[C@@H]3[C@@H](O)[C@H](N)C[C@H](N)[C@H]3O[C@H]3O[C@H](CN)[C@@H](O)[C@H](O)[C@H]3N)O[C@@H]2CO)[C@H](N)[C@@H](O)[C@@H]1O.O=S(=O)(O)O` is reported as 81.6%.
The GFP-positive cells of `COc1nc2ccc(Br)cc2cc1[C@@H](c1ccccc1)[C@@](O)(CCN(C)C)c1cccc2ccccc12` is reported as 154%.
With `CN(C)CCC(c1ccc(Br)cc1)c1ccccn1.O=C(O)/C=C\C(=O)O` (stereo not shown) the GFP-positive cells was 102%.

Set 4
Target: Sodium-dependent dopamine transporter (SLC6A3, Homo sapiens, UniProt Q01959)
Chain of UniProt Q01959 (whole entry, looked up): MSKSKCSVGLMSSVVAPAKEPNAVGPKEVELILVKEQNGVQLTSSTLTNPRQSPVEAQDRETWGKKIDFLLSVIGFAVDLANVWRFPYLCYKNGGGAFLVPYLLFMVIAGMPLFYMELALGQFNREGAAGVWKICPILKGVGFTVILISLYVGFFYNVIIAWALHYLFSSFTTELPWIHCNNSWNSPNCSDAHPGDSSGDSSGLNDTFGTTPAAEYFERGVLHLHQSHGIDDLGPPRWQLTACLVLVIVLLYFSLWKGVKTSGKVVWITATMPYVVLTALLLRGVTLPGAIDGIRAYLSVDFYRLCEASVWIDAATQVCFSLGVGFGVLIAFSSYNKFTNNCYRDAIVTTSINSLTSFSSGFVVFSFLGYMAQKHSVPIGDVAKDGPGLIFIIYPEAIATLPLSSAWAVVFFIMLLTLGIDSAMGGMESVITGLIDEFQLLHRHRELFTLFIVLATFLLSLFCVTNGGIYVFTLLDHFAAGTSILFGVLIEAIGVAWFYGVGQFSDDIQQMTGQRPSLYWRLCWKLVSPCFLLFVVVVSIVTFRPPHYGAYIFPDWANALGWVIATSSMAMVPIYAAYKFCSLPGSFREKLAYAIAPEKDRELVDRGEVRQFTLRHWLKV
Read-out: cell-free assay
Tested at: 10 µM
`Cc1c(C(=O)O)cc(-c2ccc(C3CCNCC3)cc2)c2ccc(-c3ccc(C(F)(F)F)cc3)cc12` has an inhibition of 31.2%.
`CC(=O)Nc1c(C(C)=O)c(=O)n(C)c2nc(-c3ccc(Cl)cc3Cl)c(-c3ccc(Cl)cc3)cc12` gave an inhibition of 36.4%.
The inhibition of `CN1CCN(C(=O)C(C)(C)c2ccc(C(=O)Nc3cn4cc(-c5cc(C(C)(C)C)cc(C(C)(C)C)c5)ccc4n3)cc2)CC1` is reported as -0.51%.
`CS(=O)(=O)c1cc(C2(NC(=O)c3cncc4c3cnn4-c3ccc(F)cc3)CC2)ccn1` has an inhibition of 22.5%.
`CC(C)(C)OC(=O)N1CCCC1CNC1CCC(c2cc(F)ccc2F)(S(=O)(=O)c2ccc(Cl)cc2)CC1` (stereo not shown) gave an inhibition of 95.9%.
With `Cc1noc([C@H]2C[C@@H](c3ccc(C(F)(F)F)cc3)CN(C(=O)N3CCS(=O)(=O)C3)C2)n1` the inhibition was 5.46%.
`CS(=O)(=O)N1CCCC(NC(=O)[C@H](CCC2CCCCC2)NC(=O)c2ccc(CNC(=O)c3cnc4ccccn34)cc2)C1` (stereo partly shown) has an inhibition of 11.5%.
`Nc1nc(NCc2ccccc2)nc(-c2ccccc2CO)n1` gave an inhibition of 18.1%.
`CN(c1ccnc(CNc2nc(Nc3ccc4c(c3)CC(=O)N4)ncc2C(F)(F)F)n1)S(C)(=O)=O` gave an inhibition of -11.6%.
`Nc1nc(NCc2ccccc2)nc(-c2cccc(CO)c2)n1` has an inhibition of -9.76%.
`O=C(NCCCC1CCCCC1)c1ccc(CNC(=O)c2cnn(-c3ccccc3)c2C(F)(F)F)cc1` has an inhibition of 22.3%.
`C[C@H](NC(=O)Nc1cc2[nH]ncc2c(CO)n1)c1ccccn1` gave an inhibition of 4.79%.
The inhibition of `CCC(F)(F)c1cc(N2CCC(S(C)(=O)=O)CC2)nc2sc(C(N)=O)c(N)c12` is reported as 2.35%.
`CN(C)c1ncnc(-c2ccc3nc(Nc4cc(CN5CCN(C(=O)CC(F)(F)F)CC5)ccn4)[nH]c3c2)c1Cl` gave an inhibition of -19%.

Some of these lines once more (set 4):
`Nc1nc(NCc2ccccc2)nc(-c2cccc(CO)c2)n1` has an inhibition of -9.76%.
`O=C(NCCCC1CCCCC1)c1ccc(CNC(=O)c2cnn(-c3ccccc3)c2C(F)(F)F)cc1` has an inhibition of 22.3%.
`C[C@H](NC(=O)Nc1cc2[nH]ncc2c(CO)n1)c1ccccn1` gave an inhibition of 4.79%.
The inhibition of `CCC(F)(F)c1cc(N2CCC(S(C)(=O)=O)CC2)nc2sc(C(N)=O)c(N)c12` is reported as 2.35%.
`CN(C)c1ncnc(-c2ccc3nc(Nc4cc(CN5CCN(C(=O)CC(F)(F)F)CC5)ccn4)[nH]c3c2)c1Cl` gave an inhibition of -19%.
